Measurements pooled from the literature.
Lines come from different studies, so protocols differ. ± marks the error that the study gave.

`CCOc1cncc(-c2ccc(NC(=O)C3(c4ccnc(NS(=O)(=O)C5CC5)n4)CCOCC3)nc2)n1` gave an IC50 of 32 nM (lung cancer; cell viability, CellTiter-Glo; DMSO 0.1%; 72 h, line code 430).
`Cn1ncc2cc(-c3cncc(Cl)c3N3CCC4(CCNC4=O)CC3)ccc21` — result for “log2 fold change”: -1.38 (LS174T; gene expression, microarray, refers to: KRT14 mRNA; concentration not given, 24 h; baseline: untreated cells).
`COc1cc(O)ccc1CCC(c1ccc(O)cc1)c1cc2c(c(C)c1O)OC(c1ccc(O)cc1)CC2` (mixture of isomers) has an amount of 42 ± 9 pg/mL blood (refers to: 5,15-diHETE; human whole blood; 30 µM, added: Escherichia coli).
With `O=c1[nH]cc(C(c2ccc(Cl)cc2)c2c[nH]c(=O)[nH]c2=O)c(=O)[nH]1` the inhibition was < 25% (HIV-1 subtype C; p24 antigen production, p24 ELISA; 7.8 µg/mL).
With `C=C(NC(=O)c1csc(-c2nc3c(cc2O)-c2nc(cs2)C(=O)NC(C(C)O)C(=O)NC(=C(C)OC)c2nc(cs2)C(=O)NC2c4nc(cs4)C(=O)NC(COC(=O)c4c5c6c(cccc6n4O)COC(=O)C(OC4CC(C)(O)C(N(C)C)C(C)O4)C2OC5)c2nc-3cs2)n1)C(N)=O` (stereo not shown) the bacterial load was 5.48 log CFU/g (Streptococcus pneumoniae; -25, immunocompromised mice, lung infection, lung; 16 mg/kg/day three times daily, 24 h post-dose).
Under “log2 fold change”, `c1ccc(-c2n[nH]cc2-c2ccnc3ccccc23)nc1` is recorded as -0.03 (FPK1 (Candida albicans); kinase binding, MIB/MS competition; Candida albicans lysate; 1 µM; baseline: DMSO).
For `CC1=C[C@@H](O/C=C2/C(=O)O[C@@H]3c4ccccc4C[C@H]23)OC1=O`, “maximum germination stimulation” read 100% (Phelipanche ramosa; seed germination, stimulant; seeds; 1 µM; baseline: (±)-GR24).
`CC1CCC2C(C)(C)C(O)CCC2(C)C12Cc1c(O)cc(CO)c(C=O)c1O2` (stereo not shown) gave a kcat of 0.025 s⁻¹ (StaI′ (Stachybotrys chartarum); substrate; 30 min, pH 7.5, 40 °C).
Under “log2 fold change”, `Cc1ncsc1-c1ccc(C(C)NC(=O)C2CC(O)CN2C(=O)C(NC(=O)CCCCCCCCCCN2CCCC(Nc3ncc(Cl)c(Nc4ccccc4S(=O)(=O)C(C)C)n3)C2)C(C)(C)C)cc1` (stereo not shown) is recorded as -2 (22Rv1; RNA-seq, refers to: ZNF396 mRNA; concentration not given; baseline: DMSO).
`Cc1ccc(Nc2nc(NCc3ccco3)c3ccccc3n2)cc1` gave a translation activity of 79.2% (Trypanosoma cruzi; reporter mRNA translation, inhibitor, refers to: Renilla luciferase mRNA; cell-free extract; concentration not given, test 2; baseline: positive over negative control).
For `C=CC(=O)Nc1cccc(Cn2ncc3cnc(Nc4cnn(CCOC)c4)nc32)c1`, “percent of control” read 79% (TAK1 human; binding, KINOMEscan; 100 nM; lower = stronger binding).
The relative co-enrichment of `C=CC(=O)N1[C@@H](c2ccc3c(c2)OCO3)c2[nH]c3ccccc3c2C[C@H]1C(=O)N1CCN(C)CC1` is reported as 103% (human cyclin E1 wild type-3xFLAG:CDK2; co-IP with TMT proteomics, refers to: NUP98; concentration not given, P52948; baseline: wild type DMSO).
The ΔG of `COCCOCCOCCNC(=O)Cc1cc(CC(=O)N[C@H]2C[C@H]3C(=O)Nc4cc(OCCOCCOCCOC)cc(n4)C(=O)N4CCC[C@H]4C(=O)Nc4cc(OCCOCCOCCOC)cc(n4)C(=O)N4CCC[C@H]4C(=O)Nc4cc(OCCOCCOCCOC)cc(n4)C(=O)N3C2)cc(CC(=O)N[C@H]2C[C@H]3C(=O)Nc4cc(OCCOCCOCCOC)cc(n4)C(=O)N4CCC[C@H]4C(=O)Nc4cc(OCCOCCOCCOC)cc(n4)C(=O)N4CCC[C@H]4C(=O)Nc4cc(OCCOCCOCCOC)cc(n4)C(=O)N3C2)c1` is reported as -4.92 ± 0.0956 kcal/mol (anion binding, ITC; water; 298 K, added: sodium iodide).
The inhibition of `CC(=O)[O-].O.O.O.O.[Ni+2].[O-]c1ccc(Br)cc1C=NCCN1CCOCC1` is reported as 25.8% (nitric oxide scavenging; 120 µM).
The remaining binding of `Nc1ncc(-c2cc(-c3cnn(CC(F)(F)F)c3)ncc2F)nc1C(=O)NC1CNCC(F)C1` (stereo not shown) is reported as 59% (BMPR1A; KINOMEscan; 1 µM; baseline: DMSO control).
With `CC(C)c1ccc(N(C)c2ccc3c(c2)OCC[C@H]3CNc2cnccc2C(=O)O)cc1` the IC50 was ≥ 10000 nM (NCI-H441; cell growth or viability, ATP luminescence; 7 days).
`O=c1[nH]cc(C(c2cccc(C(F)(F)F)c2)c2c[nH]c(=O)[nH]c2=O)c(=O)[nH]1` gave an inhibition of 42% (HIV-1 subtype C; p24 antigen production, p24 ELISA; 125 µg/mL).
`CNS(=O)(=O)Nc1nccc(Cc2c(C)c3ccc(Oc4ncccc4F)cc3oc2=O)c1F` gave an IC50 of > 1000 nM (HCC1588; cell viability; 7 days).
`COC1CN([C@H]2CC[C@H]([C@@]3(C)Oc4c(Cl)cc(C(=O)NCc5c(SC)cc(C)[nH]c5=O)c(C)c4O3)CC2)C1`: “log2 fold change” 2.58 (RNA-seq, refers to: CXCL16; human, whole blood; dose not given, 24 h; baseline: pretreatment baseline).
`CCN(CC)CC(=O)Nc1cccc(-n2cc(-c3ccc4ccc(-c5cn(-c6cccc(NC(=O)CN(CC)CC)c6)nn5)cc4c3)nn2)c1` has a fold regulation of 1.71 (RCC4; PCR angiogenesis array, refers to: CCL11; 5 x IC50, 2 h, normoxia; baseline: untreated).
Under “log2 fold change”, `CN1CCCNC(=O)c2cccc(c2)C(=O)NCCCN(C)CCCNc2cccc3c2C(=O)c2cccc(c2C3=O)NCCC1` is recorded as -2.14 (SAS; RNA-Seq, refers to: TENT2 mRNA; 1 µM, 6 h; baseline: untreated cells).
`O=C(NCc1cn(-c2ccccc2)nc1-c1ccccc1)c1cc([N+](=O)[O-])cc([N+](=O)[O-])c1` gave a translation activity of 82.8% (Trypanosoma cruzi; reporter mRNA translation, inhibitor, refers to: Renilla luciferase mRNA; cell-free extract; concentration not given, test 2; baseline: positive over negative control).

For quick reference, copied from above:
The remaining binding of `Nc1ncc(-c2cc(-c3cnn(CC(F)(F)F)c3)ncc2F)nc1C(=O)NC1CNCC(F)C1` (stereo not shown) is reported as 59% (BMPR1A; KINOMEscan; 1 µM; baseline: DMSO control).
With `CC(C)c1ccc(N(C)c2ccc3c(c2)OCC[C@H]3CNc2cnccc2C(=O)O)cc1` the IC50 was ≥ 10000 nM (NCI-H441; cell growth or viability, ATP luminescence; 7 days).
`O=c1[nH]cc(C(c2cccc(C(F)(F)F)c2)c2c[nH]c(=O)[nH]c2=O)c(=O)[nH]1` gave an inhibition of 42% (HIV-1 subtype C; p24 antigen production, p24 ELISA; 125 µg/mL).
